Assay results collected from several papers.
Several values in a cell are separate wells, animals, samples, runs or records. ± gives the spread as reported.

SMILES | tested on | test | system | setting | endpoint | result
CC1(C)CC[C@@]2(CO)C(=C3C=C[C@@H]4[C@@]5(C)CC[C@H](O)[C@@](C)(CO)[C@@H]5CC[C@@]4(C)[C@]3(C)C[C@@H]2O)C1 |  | UHPLC-MS/MS | mouse, plasma | oral, 50 mg/kg of saikosaponin a, 4 h | plasma concentration | 17.5 ng/mL
C[n+]1ccc(/C=N/NC(=O)c2cccc(C(=O)N/N=C/c3cc[n+](C)cc3)c2)cc1 | MYC parallel G4 DNA | FRET melting |  | 1 µM, DNA 0.2 µM | ΔTm | 1.1 ± 0.5 °C
C[C@]12C[C@H](c3ccc(S(C)(=O)=O)cc3)C3=C4CCC(=O)C=C4CC[C@H]3[C@@H]1CC[C@@]2(O)C(F)(F)C(F)(F)F |  | measured: compound (parent) | healthy human volunteers, pooled plasma | oral, 5 mg daily, day 28, 0.5 h | plasma concentration | 13.1 ng/mL
CC[C@H](C)[C@H](NC(=O)[C@H](Cc1ccc(O)cc1)NC(=O)[C@@H](NC(=O)[C@H](CCCNC(=N)N)NC(=O)[C@@H](N)CC(=O)O)C(C)C)C(=O)N[C@@H](Cc1c[nH]cn1)C(=O)N1CCC[C@H]1C(=O)O |  | LC-MS/MS | Sprague-Dawley rat, both sexes, plasma | subcutaneous, 10 mg/kg/day, day 27, 0.25 h, 15 min | plasma concentration | 257 ng/mL
O=C(N/N=C/c1cc[n+](Cc2ccccc2)c2ccccc12)C(=O)N/N=C/c1cc[n+](Cc2ccccc2)c2ccccc12 | MYC parallel G4 DNA | FRET melting |  | 1 µM, DNA 0.2 µM, with: duplex DNA competitor 10 µM | ΔTm | 4.1 ± 0.3 °C
CNc1cc(C)c(C(N)=O)cn1 |  |  | Han Wistar rats, male, plasma | oral, 30 mg/kg, 4.00 h | plasma concentration | 53.5 µM
C=CC(=O)N1CCCC(n2c(=O)c3ncccc3n(Cc3ccc(Oc4ccccc4)cc3)c2=O)C1 (stereo not drawn) |  |  | male BALB/c mouse, plasma | intraperitoneal, 200 mg/kg, 6 h | plasma concentration | 223 ng/mL
CC(C)n1ncc2c(C(=O)NC[C@@H](C)N)cc(C3CC3)nc21 |  |  | mouse BALB/c female, plasma | intraperitoneal, 30 mg/kg, 2 h | plasma concentration | 1240 ng/mL and 1010 ng/mL and 1310 ng/mL and 1290 ng/mL
COc1ccc(C(N)=O)cn1 |  |  | Han Wistar rats, male, plasma | oral, 30 mg/kg, 3.00 h | plasma concentration | 14.8 µM
C=C[C@]1(C)C[C@@H](OC(=O)CSc2ccc(NC(=O)c3ccco3)cc2)[C@]2(C)[C@H](C)CC[C@]3(CCC(=O)[C@H]32)[C@@H](C)[C@@H]1O |  |  | Mycoplasma gallisepticum-infected chickens, plasma | intramuscular, 40 mg/kg, 3 h | plasma concentration | 720 ng/mL and 533 ng/mL and 555 ng/mL and 874 ng/mL and 616 ng/mL and 801 ng/mL and 818 ng/mL and 766 ng/mL
CNc1cc(N)c(C(N)=O)cn1 |  |  | Han Wistar rats, male, plasma | oral, 30 mg/kg, 1.50 h | plasma concentration | 19.4 µM
Cc1ncsc1-c1ccc(CNC(=O)[C@@H]2C[C@@H](O)CN2C(=O)[C@@H](NC(=O)COCC(C)(COCCOCCOCCNC(=O)C[C@@H]2N=C(c3ccc(Cl)cc3)c3c(sc(C)c3C)-n3c(C)nnc32)COCCOCCOCCNC(=O)C[C@@H]2N=C(c3ccc(Cl)cc3)c3c(sc(C)c3C)-n3c(C)nnc32)C(C)(C)C)cc1 |  | LC-MS/MS | male C57BL/6 mice, plasma | intravenous, 5 mg/kg, 5 min | plasma concentration | 32100 ng/mL and 33300 ng/mL

Some of these lines once more:
SMILES | tested on | test | system | setting | endpoint | result
CC(C)n1ncc2c(C(=O)NC[C@@H](C)N)cc(C3CC3)nc21 |  |  | mouse BALB/c female, plasma | intraperitoneal, 30 mg/kg, 2 h | plasma concentration | 1240 ng/mL and 1010 ng/mL and 1310 ng/mL and 1290 ng/mL
